Measurements from different studies.
Every numbered part comes from another study and shows a few of its results, in no order.

Sample 1
Host: human
Medium: microsomes or S9
Tested at: 2 µM
Time: 0.5 h
Compound | remaining compound
O=C(Cc1c(F)cccc1Cl)N1CCc2n[nH]c(=O)n2CC1 | 13.6%
COc1ccc(CCNC(=O)C2Cc3ccccc3CN2S(=O)(=O)c2cccs2)cc1OC (stereo not drawn) | 0.0993%
Cc1noc(/C=C/c2ccccc2F)c1S(=O)(=O)N1CCC(C(=O)Nc2ccc(S(N)(=O)=O)cc2)CC1 | 85%
COC(=O)c1cc(NC(=O)CC2NCCNC2=O)cc(C(=O)OC)c1 (stereo not drawn) | 44%
CC(C)CCC1CCN(C(=O)C2CC(O)CN2)CC1 (stereo not drawn) | 107%
CC(C)(C)c1ccc(-c2n[nH]c(-c3ccccc3N)nc2=O)cc1 | 81.1%
COc1ccc(Cc2nc(-c3ccc(S(C)(=O)=O)cc3)c(C)s2)cc1 | 51.9%
O=C(O)c1cc2ccc(Cl)c(Cl)c2[nH]c1=O | 62.9%
Cc1cc2oc(C(=O)N3CCN(C)CC3)c(C)c2cc1C | 0.0157%
Cc1nnc(-c2nnc(N3CCN(C4CCCCC4)CC3)c3ccccc23)o1 | 72.3%
O=S(=O)(NCc1ccncc1O[C@H]1CCNC1)c1ccco1 | 80.3%
Nc1ncnc2c1ncn2C[C@@H]1CC[C@H](c2nc(C3CCC3)no2)O1 | > 100%
NC1=C(c2nc3ccccc3s2)C(=O)CN1CC1COCCO1 (stereo not drawn) | > 100%
CC(C)c1nc(NCCc2nnc3ccccn23)nc(N(C)C)n1 | 30%
CCCc1nc(C)c2c(Cl)nc3ccc(OC)nc3n12 | 8.42%
CCN1C(=O)C2(CC(=O)Nc3c2cnn3-c2ccccc2Cl)c2cccc(C)c21 (stereo not drawn) | 0%
CC(C)c1c(Cl)nc(NCCO)nc1N1CCN(C(=O)CO)CC1 | 95.7%
Cc1cc(=O)n2nc(-c3cccs3)nc2n1CC(=O)N1CCN(C)CC1 | > 99%
COCc1cccc(C(=O)OCC(=O)c2ccc(CCCNC(C)=O)cc2)c1 | 1.12%
CC(c1ccc(F)cc1)N(C)C(=O)c1ccc(-c2ccncc2)[nH]c1=O (stereo not drawn) | 86.9%
COc1cccc(CN(c2nc3nc(C)c(Cl)c(C)n3n2)S(=O)(=O)c2ccc(Cl)cc2)c1 | 1.52%
C(=C\c1ccc2ccnc(N3CCOCC3)c2c1)/c1ccncc1 | 28.8%
COCCN(CC1CCCN(C2Cc3ccccc3C2)C1)C(=O)Cc1c[nH]c2ccccc12 (stereo not drawn) | 5.53%

Sample 2
Target: Tyrosine-protein kinase ABL1, non-phosphorylated (ABL1, Homo sapiens, UniProt P00519, F317I)
UniProt P00519, sequence (whole entry, unmodified, looked up): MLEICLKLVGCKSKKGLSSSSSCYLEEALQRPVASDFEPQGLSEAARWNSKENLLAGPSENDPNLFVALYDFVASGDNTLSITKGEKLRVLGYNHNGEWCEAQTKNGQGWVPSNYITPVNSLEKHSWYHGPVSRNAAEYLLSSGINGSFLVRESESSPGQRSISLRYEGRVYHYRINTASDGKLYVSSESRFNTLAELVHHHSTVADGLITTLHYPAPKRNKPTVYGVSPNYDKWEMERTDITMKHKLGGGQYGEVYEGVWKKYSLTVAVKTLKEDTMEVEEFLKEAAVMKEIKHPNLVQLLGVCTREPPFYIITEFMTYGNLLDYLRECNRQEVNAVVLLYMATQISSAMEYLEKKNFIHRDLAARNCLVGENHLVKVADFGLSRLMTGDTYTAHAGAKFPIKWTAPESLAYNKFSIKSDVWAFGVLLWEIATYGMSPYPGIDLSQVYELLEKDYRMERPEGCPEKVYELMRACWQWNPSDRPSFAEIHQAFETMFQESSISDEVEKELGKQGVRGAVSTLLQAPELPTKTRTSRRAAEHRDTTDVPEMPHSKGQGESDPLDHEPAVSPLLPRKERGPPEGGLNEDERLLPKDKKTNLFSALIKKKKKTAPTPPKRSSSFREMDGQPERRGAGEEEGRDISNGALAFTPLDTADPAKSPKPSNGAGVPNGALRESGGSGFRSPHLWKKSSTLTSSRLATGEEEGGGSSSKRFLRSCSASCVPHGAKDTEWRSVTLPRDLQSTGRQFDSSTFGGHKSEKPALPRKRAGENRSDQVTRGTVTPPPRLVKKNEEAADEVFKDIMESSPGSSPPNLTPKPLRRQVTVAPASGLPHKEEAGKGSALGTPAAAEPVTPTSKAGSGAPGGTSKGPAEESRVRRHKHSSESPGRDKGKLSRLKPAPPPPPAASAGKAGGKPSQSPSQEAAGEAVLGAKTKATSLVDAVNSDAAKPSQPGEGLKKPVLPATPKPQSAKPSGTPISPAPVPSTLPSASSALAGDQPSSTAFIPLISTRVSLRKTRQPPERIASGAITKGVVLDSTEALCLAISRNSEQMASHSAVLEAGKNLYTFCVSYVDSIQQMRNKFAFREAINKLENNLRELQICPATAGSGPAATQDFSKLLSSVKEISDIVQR
Read-out: binding
Method: competition with immobilised ligand
Tested at: 0.1 µM
Compound | remaining binding [%]
C[C@@H](NC(=O)Nc1cc2[nH]ncc2c(CO)n1)c1ccccc1 | 100
Cc1ccc(-c2cnc([C@@]3(O)CC[C@H](C(=O)O)C(C)(C)C3)s2)cc1Nc1cccc(C(F)(F)F)n1 | 84.1
Cc1cc(Nc2nccc(C)n2)cc(-c2cnc([C@@]3(O)CC[C@H](C(=O)O)C(C)(C)C3)s2)c1 | 100

Sample 3
Cell line: HaCaT
Tested at: 100 µM
Time: 18 h
Compound | viability [%]
Cc1cc(/C=C/C#N)cc(C)c1Nc1ccnc(Nc2ccc(C#N)cc2)n1 | 24.1
COc1cc2c(cc1Cc1cccc(Cl)c1F)c(=O)c(C(=O)O)cn2[C@H](CO)C(C)C | 95.6
CC(C(=O)O)c1ccc(-c2ccccc2)c(F)c1 (stereo not drawn) | 112
CCCCC(CC)CN1CN(CC(CC)CCCC)CC(C)(N)C1 (stereo not drawn) | 66.2
CCCCCCCCCCCCCCCCOP(=O)([O-])OCC[N+](C)(C)C | 73.1
O=c1[nH]c(=O)n([C@H]2C[C@H](O)[C@@H](CO)O2)cc1C(F)(F)F | 90.5
CO[C@H]1C(=O)[C@]2(C)[C@@H](OC)C[C@H]3OC[C@@]3(OC(C)=O)[C@H]2[C@H](OC(=O)c2ccccc2)[C@]2(O)C[C@H](OC(=O)[C@H](O)[C@@H](NC(=O)OC(C)(C)C)c3ccccc3)C(C)=C1C2(C)C | 71.9
c1ccc2c(c1)CCCC2C1=NCCN1 (stereo not drawn) | 113
Nc1nc(=O)n([C@@H]2CS[C@H](CO)O2)cc1F | 99.6
CCC(=O)O[C@]1(C(=O)SCF)[C@H](C)C[C@H]2[C@@H]3C[C@H](F)C4=CC(=O)C=C[C@]4(C)[C@@]3(F)[C@@H](O)C[C@@]21C | 86.4
CC(C)(Oc1ccc(CCNC(=O)c2ccc(Cl)cc2)cc1)C(=O)O | 97
CS(=O)(=O)n1cc2c(n1)CN([C@H]1CO[C@H](c3cc(F)ccc3F)[C@@H](N)C1)C2 | 95.2
CCOC(=O)CCC(=O)O[C@H]1[C@H](O[C@@H]2[C@@H](C)[C@H](O[C@H]3C[C@@](C)(OC)[C@@H](O)[C@H](C)O3)[C@@H](C)C(=O)O[C@H](CC)[C@@](C)(O)[C@H](O)[C@@H](C)C(=O)[C@H](C)C[C@@]2(C)O)O[C@H](C)C[C@@H]1N(C)C | 96.2
CN(C)CCOc1ccc(/C(=C(/CCCl)c2ccccc2)c2ccccc2)cc1 | 15.7

Sample 4
Target: Tyrosine-protein kinase JAK2 (JAK2, Homo sapiens, UniProt O60674)
UniProt O60674, sequence (whole entry, looked up): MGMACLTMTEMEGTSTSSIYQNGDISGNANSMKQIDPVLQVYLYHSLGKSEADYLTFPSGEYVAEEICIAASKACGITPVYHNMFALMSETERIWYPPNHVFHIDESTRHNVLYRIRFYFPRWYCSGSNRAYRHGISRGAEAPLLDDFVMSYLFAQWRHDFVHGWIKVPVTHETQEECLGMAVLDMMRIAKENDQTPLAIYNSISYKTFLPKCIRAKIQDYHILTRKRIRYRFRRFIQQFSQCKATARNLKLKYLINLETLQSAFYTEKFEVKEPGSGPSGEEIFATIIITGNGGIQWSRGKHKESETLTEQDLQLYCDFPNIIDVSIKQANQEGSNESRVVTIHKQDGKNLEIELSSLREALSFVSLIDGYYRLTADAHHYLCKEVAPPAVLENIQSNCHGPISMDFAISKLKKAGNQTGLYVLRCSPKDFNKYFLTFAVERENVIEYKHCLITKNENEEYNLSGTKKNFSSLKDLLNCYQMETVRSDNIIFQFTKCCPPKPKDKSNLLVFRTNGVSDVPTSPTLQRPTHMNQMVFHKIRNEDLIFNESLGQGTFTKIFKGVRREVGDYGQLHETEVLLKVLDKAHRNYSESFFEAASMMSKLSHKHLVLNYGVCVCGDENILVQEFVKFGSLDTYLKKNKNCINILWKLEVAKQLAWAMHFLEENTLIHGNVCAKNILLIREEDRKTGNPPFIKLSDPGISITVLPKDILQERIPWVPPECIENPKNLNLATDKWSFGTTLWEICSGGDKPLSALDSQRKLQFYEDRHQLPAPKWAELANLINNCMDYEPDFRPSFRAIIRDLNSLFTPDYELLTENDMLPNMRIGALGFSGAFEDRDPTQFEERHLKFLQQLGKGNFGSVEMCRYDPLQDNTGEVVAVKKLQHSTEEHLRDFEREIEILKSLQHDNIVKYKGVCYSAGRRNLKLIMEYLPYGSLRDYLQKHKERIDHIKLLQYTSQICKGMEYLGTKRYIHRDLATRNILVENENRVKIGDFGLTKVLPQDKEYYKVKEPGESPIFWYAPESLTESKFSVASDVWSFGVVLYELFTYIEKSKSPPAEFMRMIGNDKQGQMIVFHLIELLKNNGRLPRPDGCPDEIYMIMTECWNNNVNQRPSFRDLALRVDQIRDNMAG
Read-out: enzyme activity
Mode: inhibitor
Tested at: 0.5 µM
Reference: control
SMILES | remaining activity [%]
CCOc1nc(NC(=O)Cc2cc(OC)ccc2OC)cc(N)c1C#N | 101
CCN(CC)CCNC(=O)c1c(C)[nH]c(/C=C2\C(=O)Nc3ccc(Cl)cc32)c1C | 54
O=C1C(Cl)=C(N2C(=O)CCC2=O)C(=O)c2ccccc21 | 104
CN(C)C[C@H]1CCn2c(c(C3=C(c4cn(C)c5ccccc45)C(=O)NC3=O)c3ccccc32)C1 | 98.6
COc1cc2c(cc1OC)-c1[nH]nc(Nc3cccc(F)c3)c1C2 | 107
O=C1c2ccccc2-c2n[nH]c3cccc1c23 | 77.7
c1ccc(-c2cnc(Nc3ccc(OCCN4CCCC4)cc3)s2)cc1 | 92.7
Cc1nc2cc3nc(-c4cccs4)cnc3cc2n1C | 106
O=C(Nc1cccc(Nc2nccc(Nc3cccc(C(F)(F)F)c3)n2)c1)C1CC1 | 47.7
Cn1nc2c3c(cccc31)C(=O)c1ccccc1-2 | 95.9
Ic1cccc(CSc2nnc(-c3ccncc3)o2)c1 | 107
Cc1cn(-c2cc(NC(=O)c3ccc(C)c(Nc4nccc(-c5cccnc5)n4)c3)cc(C(F)(F)F)c2)cn1 | 100
O=c1cc(-c2cccc3c2Sc2ccccc2S3)oc(N2CCOCC2)c1 | 105
CCN(CC)C(=O)c1ccc(Nc2nc(OCC3CCCCC3)c3[nH]cnc3n2)cc1 | 4.21
O=C(NC(NC(=S)Nc1ccc(F)c([N+](=O)[O-])c1)C(Cl)(Cl)Cl)C(c1ccccc1)c1ccccc1 (stereo not drawn) | 99.9
N#Cc1c(NC(=O)c2cccc3ccccc23)sc2c1CCCC2 | 103
COc1cc2ncnc(Nc3cccc(Cl)c3)c2cc1OC | 97.4
CN([C@@H](Cc1ccc(OS(=O)(=O)c2cccc3cnccc23)cc1)C(=O)N1CCN(c2ccccc2)CC1)S(=O)(=O)c1cccc2cnccc12 | 96.6
COc1cc2ncnc(Nc3ccc(O)c(Br)c3)c2cc1OC | 95
Cc1cc2ncc(-c3ccccc3)nc2cc1C | 97.3
N#C/C(=C\c1ccc(O)c(O)c1)C(=O)NCc1ccccc1 | 98.1
c1ccc(-c2[nH]ncc2-c2ccnc3ccccc23)nc1 | 107
Nc1cccc(-c2cc3c(Oc4cccc(O)c4)ncnc3[nH]2)c1 | 85.4

Excerpt of the above (sample 4):
SMILES | remaining activity [%]
N#Cc1c(NC(=O)c2cccc3ccccc23)sc2c1CCCC2 | 103
O=C(Nc1cccc(Nc2nccc(Nc3cccc(C(F)(F)F)c3)n2)c1)C1CC1 | 47.7
CCN(CC)CCNC(=O)c1c(C)[nH]c(/C=C2\C(=O)Nc3ccc(Cl)cc32)c1C | 54
CN([C@@H](Cc1ccc(OS(=O)(=O)c2cccc3cnccc23)cc1)C(=O)N1CCN(c2ccccc2)CC1)S(=O)(=O)c1cccc2cnccc12 | 96.6
Nc1cccc(-c2cc3c(Oc4cccc(O)c4)ncnc3[nH]2)c1 | 85.4
Cc1cc2ncc(-c3ccccc3)nc2cc1C | 97.3
O=C1C(Cl)=C(N2C(=O)CCC2=O)C(=O)c2ccccc21 | 104
c1ccc(-c2[nH]ncc2-c2ccnc3ccccc23)nc1 | 107
COc1cc2ncnc(Nc3cccc(Cl)c3)c2cc1OC | 97.4
O=C(NC(NC(=S)Nc1ccc(F)c([N+](=O)[O-])c1)C(Cl)(Cl)Cl)C(c1ccccc1)c1ccccc1 (stereo not drawn) | 99.9
